Experimental data pooled from the literature.
Compare with care: the assays were run in different laboratories.
Cell line: SR

SMILES | test | setting | how to read | endpoint | result
CCCN1CCN(c2ccc3[nH]c(-c4ccc5[nH]c(-c6cc(OC)c(OC)c(OC)c6)nc5c4)nc3c2)CC1 | SRB | 10 µM, 48 h | – | growth percent | 34.6%
O=c1ccn(Cc2cn(-c3c4ccccc4nc4ccccc34)nn2)c(=O)[nH]1 | NCI60 single-dose screen | 10 µM | – | growth percentage | 38.8%
O=C(Nc1nnc2[nH]c(=S)[nH]c(-c3ccc(Cl)cc3)c1-2)c1ccccc1 | SRB | 10 µM, NCI60 single-dose screen | baseline: untreated | cell growth | 91.6%
Cc1cc(C)n(C(=S)[S][Au][PH](CCCCCC[PH]([Au][S]C(=S)n2nc(C)cc2C)(c2ccccc2)c2ccccc2)(c2ccccc2)c2ccccc2)n1 | cell growth, NCI-60 screen | leukaemia | – | log TGI | -6.28 log10 M
Cc1cc(=O)[nH]n1-c1nc(-c2ccc(Cl)cc2)c2c(NC(=O)c3ccccc3)nnc-2[nH]1 | SRB | 10 µM, NCI60 single-dose screen | baseline: untreated | cell growth | 85.4%
CN1CCN(c2ccc3[nH]c(-c4ccc5[nH]c(-c6ccc(C(F)(F)F)cc6)nc5c4)nc3c2)CC1 | SRB | 10 µM, 48 h | – | growth percent | -18.5%
S=C([S][Au-][P+](CCCCCC[P+]([Au-][S]C(=S)n1cccn1)(c1ccccc1)c1ccccc1)(c1ccccc1)c1ccccc1)n1cccn1 | cell growth, NCI-60 screen | leukaemia | – | log TGI | -5.62 log10 M
Cc1cc(=O)[nH]c(=O)n1Cc1cn(-c2c3ccccc3nc3ccccc23)nn1 | NCI60 single-dose screen | 10 µM | – | growth percentage | 11.4%
NNc1nc(-c2ccc(Cl)cc2)c2c(NC(=O)c3ccccc3)nnc-2[nH]1 | SRB | 10 µM, NCI60 single-dose screen | baseline: untreated | cell growth | 90.9%
CCCC(CCC)C(=O)OCc1cn(-c2c3ccccc3nc3ccccc23)nn1 | NCI60 single-dose screen | 10 µM | – | growth percentage | 80.6%
Cc1n[nH]c2nc(-c3ccc(Cl)cc3)c3c(NC(=O)c4ccccc4)nnc-3n12 | SRB | 10 µM, NCI60 single-dose screen | baseline: untreated | cell growth | 87%
COc1ccc(OC)c(-c2nc3ccc(-c4nc5ccc(N6CCN(C)CC6)cc5[nH]4)cc3[nH]2)c1 | SRB | 10 µM, 48 h | – | growth percent | 70.5%
O=C1NC(c2ccccc2)(c2ccccc2)C(=O)N1Cc1cn(-c2cc3ccccc3oc2=O)nn1 | NCI60 single-dose screen | 10 µM | – | growth percentage | 93.1%
CCOc1ccc(-c2nc3cc(-c4nc5cc(N6CCN(C)CC6)ccc5[nH]4)ccc3[nH]2)cc1OCC | SRB | 10 µM, 48 h | – | growth percent | 8.73%
Cc1cc(-c2ccccc2)n(-c2nc(-c3ccc(Cl)cc3)c3c(NC(=O)c4ccccc4)nnc-3[nH]2)n1 | SRB | 10 µM, NCI60 single-dose screen | baseline: untreated | cell growth | 94.1%

For quick reference, copied from above:
SMILES | test | setting | how to read | endpoint | result
O=C1NC(c2ccccc2)(c2ccccc2)C(=O)N1Cc1cn(-c2cc3ccccc3oc2=O)nn1 | NCI60 single-dose screen | 10 µM | – | growth percentage | 93.1%
